# Results from different studies.
# Each numbered part is a random draw from the data of one study; scales do not carry over between parts.

# Set 1
# Target: Histone acetyltransferase KAT6A, winged helix 2, GST fusion (KAT6A, Homo sapiens, UniProt Q92794, residues 85-181)
# Method: protein binding microarray
# Form: double-stranded DNA, one strand shown
# Matrix: in vitro
# Concentration: not given
# Setting: 8-mer, flanks averaged, mean of 2 arrays, mostly near background
# Baseline: not given
# Reading: higher = stronger binding
# Residues (chain): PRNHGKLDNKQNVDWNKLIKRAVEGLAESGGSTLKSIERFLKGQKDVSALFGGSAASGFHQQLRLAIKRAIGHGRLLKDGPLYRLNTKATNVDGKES
Oligonucleotide,E-score
CGTAGATC,-0.0275
GAAGGAGA,-0.172
ACGACCAT,-0.17
CCGAGCAC,0.151
AGCCTCTG,-0.212
ATTTACAC,-0.261
GGTACTAA,-0.0557
ACAGGTCC,-0.0448
GAAACCCC,0.0627
CACGTCCC,-0.236
GACAAACC,0.105
CGCGCATA,-0.0389
GATGATAA,0.0918
TCGAGTCA,-0.153
CCTAGTCA,-0.198
CCCTAACA,0.124
AGGTGACG,-0.0537
GAGCGCTC,-0.0645
ATGAGCGG,-0.0808
AATCGTCC,-0.131
AACCGATC,-0.0843
GAGCTAAA,-0.0561
ATCATCAA,0.122
TGATACAA,0.0318
ACACACTA,0.0581

# Set 2
# Target: RING finger protein unkempt homolog, zinc fingers 1-6, GST-SBP tag (UNK, Homo sapiens, UniProt Q9C0B0, residues 30-357)
# Method: RNA Bind-n-Seq
# Form: RNA
# Matrix: in vitro
# Concentration: not given
# Setting: RNA with constant flanks, human and mouse sites, ends assumed
# Baseline: input RNA pool
# Reading: higher = stronger binding
# All sequences stand within: GGGAGUUCUACAGUCCGACGAUC … CAACAGAGGAUUGAGCAUCA
# Target sequence (chain): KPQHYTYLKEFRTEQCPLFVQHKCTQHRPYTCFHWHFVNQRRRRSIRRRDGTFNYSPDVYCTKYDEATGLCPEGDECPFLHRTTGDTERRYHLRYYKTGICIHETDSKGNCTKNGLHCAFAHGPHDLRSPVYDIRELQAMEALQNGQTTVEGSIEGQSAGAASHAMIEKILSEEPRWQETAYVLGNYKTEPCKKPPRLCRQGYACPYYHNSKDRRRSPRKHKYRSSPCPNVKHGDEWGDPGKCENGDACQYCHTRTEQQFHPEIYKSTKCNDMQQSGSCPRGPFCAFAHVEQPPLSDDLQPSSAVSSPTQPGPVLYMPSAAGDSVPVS
Oligonucleotide,bound/input enrichment
AAUAGACUGGUCAGCUCUGGAAUCUACAAAGCAGCGUUUCCUCUGCACGACUGCAGAUUCAACUAUGAGUCGGAGGACAUCAGUUGUCCUAGCGAGCGUUACCUCCUGUACAGAGAAUGG,0.307 ratio
GGGAAGAAAUUCGGCAGUGAAUGAAGAUUCCUCUGCAUUUUAGCAUUGCUUUUUCUACUGUAGUUGGCUUUUGAAUGAGGAUGACAAUGGAAGAGAUGAAGAAUGAAGCUGAGACCACUU,0.485 ratio
GAAUAUGUGGCAAUCAAAACCAAGAAACGAAUCUUGCUGUACACCAUGAACCCCAACAAAUUUAGAGCUUGCCAGUUUCUGAUCAAGUUUCAUGAAAGGAGGAAUGACAAGAUUAUUGUC,0.282 ratio
GGGGCCCCGAAGGUAGAGGAGGCAGCGCGCACGGGCUGGACCUCCUCCUACCCUGGGAAGUUGGGGCAGUUUCCCCCUGCACCUGCCUCUUCCUUAGGCCUGGCAGUGGCCCGCGAUGAG,0.11 ratio
CGGUCAGGGCGCCCCCUCCGCCCGCCUCCUGCUUCCUCCUCCGCUGCCUGCCGCCGCCGCCUCCACCAUUGUAUAAUGCUCGGGGCGCGCAGGCAGAGAACGGCGGAGUCUUAGCUUCAG,0.0933 ratio
CCUCCCAGAAAGCAAGUGUAUCGUUUCUUCUUUUAUAGUUGUAAAUAAUCCAGCCAGAGGUAGUUUCUAGCCUGUGCCAUAUAGAUGUUUCCUACGGUGUUCUCUCAACAAAGUGUUUAU,2.56 ratio
CCACUUCGUAGUGUUUUGGAACAAACCAAGUUAAAGAAAGAAGAUAUUUAUGCAGUGGAGAUAGUUGGUGGUGCUACACGAAUCCCUGCGGUAAAAGAGAAGAUCAGCAAAUUUUUCGGU,0.558 ratio
CCUGCAGUAGGAAGUUUUGGGGUUUUUUGUUUUUGUUUGGUUUUGGUUUUGUUUUUCUUAAAUAGUCUCUUAUGGGUAGCUGGAUUCUCUGCCAUUUGUAAUUUUUCCUCUGAUUCCAAU,8.79 ratio

# Set 3
# Target: RNA binding protein fox-1 homolog 2, RRM domain, GST-SBP tag (RBFOX2, Homo sapiens, UniProt O43251-10, residues 100-194)
# Method: RNA Bind-n-Seq
# Form: RNA
# Matrix: in vitro
# Concentration: 365 nM
# Setting: natural RNA segment, single round, ends assumed
# Baseline: no-protein control
# Reading: higher = stronger binding
# All sequences stand within: GGGAGUUCUACAGUCCGACGAUC … UGGAAUUCUCGGGUGCCAA
Oligonucleotide,RBNS enrichment (R)
UAGAUUUUAAAACACUUAACCAAGCCAUUACAUCUUAAAAACAAAACAAGUAGCAUACAUUUUGUAAUUAACAUUGAUAAACACUGUGAUUUUUUUGGUUAAGACUUUUU,0.632
CCAGUGUUCUGUUAAUAUUAUUUGUAAUUUAGUUUGUAAAUUCAUUAAAAGAAAAUAUUCUCAGCUGAGAGUGAAUCUCUUUCAUAUUUAUCCUUCAUUUAUUUUUUUAC,1.26
CAUGUGUAUCCCUUUAAGUUGUUUCUCCUUGACACGCUCCACAAUGGCAAAGAUACCAAGUCAUACCUACUCAACAGAUGGCAUGGGACAUAUGAAGAAAUGGAGACAUU,0.606
UAUCGGCUCUGGCUCCCCGGAACCAUUAGAGACUAACUGUUGUUUCCACAAAGGAGGGCUGAGAGUGAACGUGAUCAUACGUAGUUGUGAAAUCGGUUUGAUUGAGUGGG,0.718
UGGAUGUAAGCUUGCUUGAGAACUAUGGGUUUUAGCUAUUCUGGUGUCUCCCUGAUUUUCUACAGCGCCAGGAUCCUAGUUUGGUGAGGUUUUAAAUUUAAUCUUAUUUU,0.528
GUUUUGGACAUCAAGCAUCCUAAUGGUACCUCCUUUGUACAAUGCCAAAAUGAGCCUCGGUGUCAGAGGAUACAACAAAAACAGCAAUUUUGAUGCCUUUGAAAUGAUGA,0.747
CAUUGUCACUAAUAACUUCUGUGUUCUCCCAGGCAGUGUUAUAACAGAAGGGCAAUGAAAACAUUGGACAUGACCAUGAGUGCUUCCUUUCCUUAACUCUAGGUUUGUAG,0.474
UACUGUUGGAGAACAAGAAUGCUACUGUAUUUUACAUCUUUAUUUCUUGGUGAAACAAAAGUUUUAAAAGUAGUUUUAACAACUUUACACUGGAAUGAUUUAGCUUUGUU,0.449

# Set 4
# Target: Fragile X messenger ribonucleoprotein 1, C-terminal low-complexity region (Fmr1, Mus musculus, UniProt P35922)
# Method: RNA Bind-n-Seq
# Form: RNA
# Matrix: in vitro
# Concentration: 200 nM
# Setting: whole 134-nt RNA, ends assumed
# Together with: 150 mM KCl
# Baseline: input library
# Reading: higher = stronger binding
# All sequences stand within: GGGAGUUCUACAGUCCGACGAUC … UGGAAUUCUCGGGUGUCAAGG
Oligonucleotide,log2 enrichment
UUGUCUACAGAACUAGACAGUACGGAUGGUGCCAAAGUUUUUAGUAAACAACCAGGAAGAAUCCAAAGAGUAGCAAGAGGAUCGGGUGUA,-1.39
UUUCGGCUACCCCCAGUUCUUCUUUGCCAAAGCGUACACGUGAAGAGGAAGAGGAUAGCACCAUAGAAGCAUCAGACCAAGUCUCUGAUG,-1.35
CACAGACAACACGCACCCACACAGACACAGAGGGAAGGGGUGGGGAUGGGGACAGGGUGCACAGCAGGGCGGGGUAGGACCCCAGCCCCU,1.21
CAAGUCCUGUGCUACACAUCGUAUGUACCGAAUCGGCCCCGGCCCCGGGGCCCCGGAAAGUAUUAUGUUACGCCGUUCGGAUCUGCACUU,-1.06
CCUCAAGUCCUGUGCUACACAUCGUAUGUACCGAAUCGGAGGUUUUUGGUGGAAAGUAUUAUGUUACGCCGUUCGGAUCUGCACUUCCAG,0.145
CAAGUCCUGUGCUACACAUCGUAUGUACCGAAUCGGGGCCCGGCCCGGGGCCCGGAAAGUAUUAUGUUACGCCGUUCGGAUCUGCACUUC,-0.78
AAGUCCUGUGCUACACAUCGUAUGUACCGAAUCGGAAAAGGAAAAGGGGAAAAGGGAAAGUAUUAUGUUACGCCGUUCGGAUCUGCACUU,-0.467
AGUCCUGUGCUACACAUCGUAUGUACCGAAUCAAACCCCCCCAAACCCAAAUUUAAAAAAGUAUUAUGUUACGCCGUUCGGAUCUGCACU,-0.054
ACCAUGCAGGUGGGCAUCUUUGGGAAGUGGGGCAAGGGGGGGAUAGGGAGGGGGGUAAAAAUUUGGGAACAGGUGGUCCCAGGUCGUUUC,0.678
